Published values collected from several papers.
Parts stem from different laboratories: compare values within a part only.
Sequence of UniProt Q16832 (whole entry, looked up): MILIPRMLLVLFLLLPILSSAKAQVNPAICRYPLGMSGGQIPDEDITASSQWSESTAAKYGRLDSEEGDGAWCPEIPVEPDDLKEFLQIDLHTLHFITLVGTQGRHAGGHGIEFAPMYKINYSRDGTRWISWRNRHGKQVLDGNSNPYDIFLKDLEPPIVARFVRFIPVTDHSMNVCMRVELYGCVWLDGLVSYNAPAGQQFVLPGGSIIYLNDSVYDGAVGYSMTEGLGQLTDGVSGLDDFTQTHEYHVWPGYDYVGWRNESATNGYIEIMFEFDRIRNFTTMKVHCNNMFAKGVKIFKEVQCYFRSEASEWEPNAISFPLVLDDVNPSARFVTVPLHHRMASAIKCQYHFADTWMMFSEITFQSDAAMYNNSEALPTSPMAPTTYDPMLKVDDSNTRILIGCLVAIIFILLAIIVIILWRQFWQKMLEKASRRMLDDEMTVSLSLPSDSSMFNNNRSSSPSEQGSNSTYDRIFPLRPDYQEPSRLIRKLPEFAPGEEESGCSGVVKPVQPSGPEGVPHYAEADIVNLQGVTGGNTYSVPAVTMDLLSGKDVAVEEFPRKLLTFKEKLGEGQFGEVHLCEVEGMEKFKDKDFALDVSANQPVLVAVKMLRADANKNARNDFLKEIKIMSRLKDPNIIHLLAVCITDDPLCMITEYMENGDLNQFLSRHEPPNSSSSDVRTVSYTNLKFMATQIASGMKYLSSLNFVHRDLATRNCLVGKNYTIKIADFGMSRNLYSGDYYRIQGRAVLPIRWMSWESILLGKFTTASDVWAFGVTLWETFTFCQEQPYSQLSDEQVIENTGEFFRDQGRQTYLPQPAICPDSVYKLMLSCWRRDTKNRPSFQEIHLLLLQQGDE
Sequence of UniProt O43293 (whole entry, looked up): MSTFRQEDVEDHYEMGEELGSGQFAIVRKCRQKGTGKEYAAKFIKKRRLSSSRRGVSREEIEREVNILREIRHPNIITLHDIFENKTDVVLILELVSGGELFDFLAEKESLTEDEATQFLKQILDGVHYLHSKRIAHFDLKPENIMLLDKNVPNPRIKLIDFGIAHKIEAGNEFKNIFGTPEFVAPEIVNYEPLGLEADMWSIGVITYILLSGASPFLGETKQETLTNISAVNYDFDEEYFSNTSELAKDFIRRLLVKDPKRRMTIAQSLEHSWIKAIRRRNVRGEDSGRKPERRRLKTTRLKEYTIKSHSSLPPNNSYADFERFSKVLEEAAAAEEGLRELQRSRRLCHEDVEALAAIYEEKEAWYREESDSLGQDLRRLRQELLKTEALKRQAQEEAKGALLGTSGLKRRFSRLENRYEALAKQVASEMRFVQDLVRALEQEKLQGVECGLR
Sequence of UniProt Q96GD4 (whole entry, looked up): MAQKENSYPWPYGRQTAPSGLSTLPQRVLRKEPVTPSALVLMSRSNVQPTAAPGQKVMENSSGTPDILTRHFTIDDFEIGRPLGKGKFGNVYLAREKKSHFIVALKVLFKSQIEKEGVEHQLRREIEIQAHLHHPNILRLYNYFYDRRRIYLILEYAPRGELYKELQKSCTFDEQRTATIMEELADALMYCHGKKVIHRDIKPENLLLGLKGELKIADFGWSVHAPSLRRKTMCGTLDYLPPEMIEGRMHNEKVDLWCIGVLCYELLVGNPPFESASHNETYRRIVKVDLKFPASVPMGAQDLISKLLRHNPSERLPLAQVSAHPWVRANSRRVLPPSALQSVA
Sequence of UniProt Q8TDX7 (whole entry, looked up): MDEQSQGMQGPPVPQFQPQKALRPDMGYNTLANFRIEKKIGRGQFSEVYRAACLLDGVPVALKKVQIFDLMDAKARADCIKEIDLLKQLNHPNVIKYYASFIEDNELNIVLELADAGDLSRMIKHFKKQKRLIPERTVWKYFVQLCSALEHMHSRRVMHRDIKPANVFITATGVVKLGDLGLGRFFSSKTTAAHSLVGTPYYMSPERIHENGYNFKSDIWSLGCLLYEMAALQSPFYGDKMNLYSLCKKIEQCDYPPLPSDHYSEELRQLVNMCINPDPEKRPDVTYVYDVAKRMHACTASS

Set 1
Target: DNA polymerase theta, ATPase domain (POLQ, Homo sapiens, UniProt O75417)
Sequence of UniProt O75417 (whole entry, unmodified, looked up): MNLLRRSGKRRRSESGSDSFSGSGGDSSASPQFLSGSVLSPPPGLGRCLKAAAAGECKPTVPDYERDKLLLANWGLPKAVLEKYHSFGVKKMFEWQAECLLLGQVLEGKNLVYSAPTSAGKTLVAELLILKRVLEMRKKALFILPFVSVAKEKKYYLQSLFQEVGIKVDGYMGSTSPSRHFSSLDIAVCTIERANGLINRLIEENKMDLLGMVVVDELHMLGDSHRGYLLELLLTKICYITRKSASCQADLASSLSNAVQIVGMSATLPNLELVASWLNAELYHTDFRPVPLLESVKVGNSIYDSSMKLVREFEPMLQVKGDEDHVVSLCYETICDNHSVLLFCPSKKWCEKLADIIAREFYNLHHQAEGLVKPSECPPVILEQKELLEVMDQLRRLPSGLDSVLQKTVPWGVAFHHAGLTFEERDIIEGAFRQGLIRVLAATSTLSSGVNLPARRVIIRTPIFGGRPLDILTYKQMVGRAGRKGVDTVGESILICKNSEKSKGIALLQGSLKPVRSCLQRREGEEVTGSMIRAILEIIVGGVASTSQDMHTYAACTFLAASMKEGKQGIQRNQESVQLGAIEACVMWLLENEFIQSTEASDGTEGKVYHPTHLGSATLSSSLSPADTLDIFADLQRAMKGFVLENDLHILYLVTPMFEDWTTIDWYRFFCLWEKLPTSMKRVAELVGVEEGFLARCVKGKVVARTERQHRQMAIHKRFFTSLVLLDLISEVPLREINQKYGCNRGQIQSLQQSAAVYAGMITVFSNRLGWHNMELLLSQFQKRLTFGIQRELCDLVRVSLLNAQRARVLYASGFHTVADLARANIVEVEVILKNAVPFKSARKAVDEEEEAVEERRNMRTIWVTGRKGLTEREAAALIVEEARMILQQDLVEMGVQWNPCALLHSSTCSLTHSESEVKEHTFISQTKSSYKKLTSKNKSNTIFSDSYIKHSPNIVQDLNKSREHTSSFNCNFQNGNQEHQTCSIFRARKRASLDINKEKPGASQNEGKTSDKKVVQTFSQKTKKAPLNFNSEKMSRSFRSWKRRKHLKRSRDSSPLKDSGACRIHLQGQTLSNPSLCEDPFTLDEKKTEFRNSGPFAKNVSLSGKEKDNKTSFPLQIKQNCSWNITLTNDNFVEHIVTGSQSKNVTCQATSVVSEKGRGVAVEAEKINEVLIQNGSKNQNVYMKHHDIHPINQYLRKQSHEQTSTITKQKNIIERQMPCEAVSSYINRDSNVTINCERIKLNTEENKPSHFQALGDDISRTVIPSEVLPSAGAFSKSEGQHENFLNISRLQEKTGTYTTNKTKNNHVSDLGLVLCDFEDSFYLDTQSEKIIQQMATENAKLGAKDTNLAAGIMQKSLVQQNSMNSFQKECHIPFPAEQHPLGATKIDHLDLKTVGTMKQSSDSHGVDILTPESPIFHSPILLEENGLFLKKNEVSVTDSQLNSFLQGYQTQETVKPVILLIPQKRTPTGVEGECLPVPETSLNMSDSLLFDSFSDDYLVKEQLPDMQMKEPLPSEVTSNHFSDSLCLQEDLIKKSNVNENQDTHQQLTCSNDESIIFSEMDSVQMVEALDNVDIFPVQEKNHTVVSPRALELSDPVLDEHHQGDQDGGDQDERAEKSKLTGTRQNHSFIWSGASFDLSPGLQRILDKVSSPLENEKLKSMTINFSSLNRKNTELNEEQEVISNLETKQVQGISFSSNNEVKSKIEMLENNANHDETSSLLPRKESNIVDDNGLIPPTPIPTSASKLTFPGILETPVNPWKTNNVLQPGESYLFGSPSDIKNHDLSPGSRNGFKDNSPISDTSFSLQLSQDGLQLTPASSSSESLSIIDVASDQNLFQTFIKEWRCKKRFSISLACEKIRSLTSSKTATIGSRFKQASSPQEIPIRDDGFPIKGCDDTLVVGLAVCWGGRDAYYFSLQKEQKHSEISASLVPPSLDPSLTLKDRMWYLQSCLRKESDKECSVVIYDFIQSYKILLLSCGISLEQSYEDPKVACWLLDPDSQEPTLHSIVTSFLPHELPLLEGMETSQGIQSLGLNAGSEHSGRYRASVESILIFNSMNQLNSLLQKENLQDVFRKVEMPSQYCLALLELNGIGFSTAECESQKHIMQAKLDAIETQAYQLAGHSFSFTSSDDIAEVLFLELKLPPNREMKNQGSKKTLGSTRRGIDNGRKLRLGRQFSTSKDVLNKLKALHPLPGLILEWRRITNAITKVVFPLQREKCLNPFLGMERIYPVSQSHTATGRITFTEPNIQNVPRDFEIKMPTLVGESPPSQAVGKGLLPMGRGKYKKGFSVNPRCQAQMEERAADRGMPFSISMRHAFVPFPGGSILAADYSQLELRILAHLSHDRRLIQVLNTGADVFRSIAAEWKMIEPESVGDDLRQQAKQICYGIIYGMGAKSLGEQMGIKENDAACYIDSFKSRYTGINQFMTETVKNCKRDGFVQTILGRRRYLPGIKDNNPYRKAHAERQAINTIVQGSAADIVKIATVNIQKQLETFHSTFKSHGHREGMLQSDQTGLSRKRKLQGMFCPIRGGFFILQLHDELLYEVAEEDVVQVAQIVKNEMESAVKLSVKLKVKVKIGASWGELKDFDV
Read-out: enzyme activity
Mode: inhibitor
Concentration: 77 µM
Reference: untreated
Structure (SMILES) | remaining activity [%]
Cc1nc(N(C)C(=O)Cc2ccc(-c3ccccn3)cc2)sc1S(N)(=O)=O | 100
CCOc1nc2cccc(C(=O)O)c2n1Cc1ccc(-c2ccccc2-c2noc(=O)[nH]2)cc1 | 73.6
CC1=C(/C=C/C(C)=C/C=C/C(C)=C/C=C/C=C(C)/C=C/C=C(C)/C=C/C2=C(C)C(=O)[C@@H](O)CC2(C)C)C(C)(C)C[C@H](O)C1=O | 86.9
CNCc1ccc(-c2[nH]c3cc(F)cc4c3c2CCNC4=O)cc1 | 77.3
Nc1nc(=O)n([C@@H]2CS[C@H](CO)O2)cc1F | 99.9
Nc1ccccc1NC(=O)c1ccc(CNC(=O)OCc2cccnc2)cc1 | 92.4
COc1ccc([C@H]2CNC(=O)C2)cc1OC1CCCC1 | 100
CN(C)CCn1nnnc1SCC1=C(C(=O)O)N2C(=O)[C@@H](NC(=O)Cc3csc(N)n3)[C@H]2SC1 | 98.7
NS(O)(O)Cc1noc2ccccc12 | 101
CC(=O)OCC(=O)[C@@]1(O)[C@H](C)C[C@H]2[C@@H]3CCC4=CC(=O)C=C[C@]4(C)[C@@]3(F)[C@@H](O)C[C@@]21C | 99.5
CC(C)CCNC(=O)[C@H](CC(C)C)NC(=O)[C@H]1O[C@@H]1C(=O)O | 94.5
CC(O)Cn1cnc2c1c(=O)n(C)c(=O)n2C (stereo not drawn) | 101
COc1cc2ncnc(Nc3ccc(Cl)cc3F)c2cc1OC | 88.8
CCOc1ccc(Cc2cc([C@@H]3O[C@H](CO)[C@@H](O)[C@H](O)[C@H]3O)ccc2Cl)cc1 | 95.6
CN1CCCN=C1/C=C/c1cccs1 | 101
C[C@@H]1O[C@@H](OC[C@H]2O[C@@H](Oc3c(-c4ccc(O)c(O)c4)oc4cc(O)cc(O)c4c3=O)[C@H](O)[C@@H](O)[C@@H]2O)[C@H](O)[C@H](O)[C@H]1O | 98.6
COc1ccc(C(C)=O)c(O)c1 | 101

Set 2
SMILES: C[C@H](NC(=O)c1cnc2n1[C@](C)(Cc1ccc(C#N)cc1)C(=O)N2c1cc(Cl)c(F)c(Cl)c1)C(=O)NC1(c2ccccn2)CC1
Concentration: 1 µM
target | assay | remaining binding [%]
Aurora kinase B (AURKB, Homo sapiens, UniProt Q96GD4) | cell-free assay, competition with immobilised ligand | 100
STK32A (Homo sapiens, UniProt Q8WU08) | cell-free assay, competition with immobilised ligand | 83
CSNK1E (Homo sapiens, UniProt P49674) | cell-free assay, competition with immobilised ligand | 82
EPHA1 (Homo sapiens, UniProt P21709) | cell-free assay, competition with immobilised ligand | 100
HIPK3 (Homo sapiens, UniProt Q9H422) | cell-free assay, competition with immobilised ligand | 100
Tyrosine-protein kinase JAK3, JH1 (JAK3, Homo sapiens, UniProt P52333) | cell-free assay, competition with immobilised ligand | 100
NEK7 (Homo sapiens, UniProt Q8TDX7) | cell-free assay, competition with immobilised ligand | 100
DDR2 (Homo sapiens, UniProt Q16832) | cell-free assay, competition with immobilised ligand | 100
PAK1 (Homo sapiens, UniProt Q13153) | cell-free assay, competition with immobilised ligand | 95
SIK1 (Homo sapiens, UniProt P57059) | competition binding | 100
RIPK4 (Homo sapiens, UniProt P57078) | cell-free assay, competition with immobilised ligand | 100
ALK (Homo sapiens, UniProt Q9UM73, C1156Y) | cell-free assay, competition with immobilised ligand | 100
DAPK3 (Homo sapiens, UniProt O43293) | cell-free assay, competition with immobilised ligand | 97
WEE2 (Homo sapiens, UniProt P0C1S8) | cell-free assay, competition with immobilised ligand | 100
BLK (Homo sapiens, UniProt P51451) | cell-free assay, competition with immobilised ligand | 98
FLT1 (Homo sapiens, UniProt P17948) | cell-free assay, competition with immobilised ligand | 100
Tyrosine-protein kinase ABL1, phosphorylated (ABL1, Homo sapiens, UniProt P00519) | cell-free assay, competition with immobilised ligand | 100
EGFR (Homo sapiens, UniProt P00533, A750P/del747-749) | cell-free assay, competition with immobilised ligand | 100
CDK11A (Homo sapiens, UniProt Q9UQ88) | binding, competition with immobilised ligand | 100
RIOK3 (Homo sapiens, UniProt O14730) | cell-free assay, competition with immobilised ligand | 100

Set 3
Target: Calcium/calmodulin-dependent protein kinase type II subunit alpha (CAMK2A, Homo sapiens, UniProt Q9UQM7)
Sequence of UniProt Q9UQM7 (whole entry, looked up): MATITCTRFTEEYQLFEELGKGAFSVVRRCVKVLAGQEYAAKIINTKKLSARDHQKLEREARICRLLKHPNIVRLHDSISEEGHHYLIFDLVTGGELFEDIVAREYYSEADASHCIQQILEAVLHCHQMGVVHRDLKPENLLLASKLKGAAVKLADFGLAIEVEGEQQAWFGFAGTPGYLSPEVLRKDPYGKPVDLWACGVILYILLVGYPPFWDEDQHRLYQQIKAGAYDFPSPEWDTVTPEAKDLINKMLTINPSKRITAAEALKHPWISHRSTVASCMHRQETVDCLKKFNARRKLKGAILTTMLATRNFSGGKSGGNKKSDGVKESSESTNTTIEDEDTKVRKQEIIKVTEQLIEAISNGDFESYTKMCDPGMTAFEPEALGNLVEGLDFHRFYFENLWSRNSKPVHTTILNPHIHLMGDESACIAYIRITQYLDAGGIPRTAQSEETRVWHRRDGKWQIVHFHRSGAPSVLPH
Read-out: enzyme activity
Mode: inhibitor
Concentration: 10 µM
SMILES | inhibition
CC1(C)CC[C@]2(C(=O)O[C@@H]3O[C@H](CO)[C@@H](O)[C@H](O)[C@H]3O)CC[C@]3(C)C(=CC[C@@H]4[C@@]5(C)CC[C@H](O[C@@H]6O[C@H](C(=O)O)[C@@H](O[C@@H]7O[C@@H](CO)[C@H](O)[C@H]7O)[C@H](O)[C@H]6O)C(C)(C)[C@@H]5CC[C@]43C)[C@@H]2C1 | 7%
C=C1C[C@@]23CC[C@H]4[C@@](C)(CCC[C@@]4(C)C(=O)O)[C@@H]2CC[C@]1(O)C3 | 11%
C/C=C(\C)C(=O)O | 9%
CC(C)=CCC12Oc3cc(O)ccc3C1(O)Oc1cc(O)c([C@H]3C=C(C)C[C@@H](c4ccc(O)cc4O)[C@@H]3C(=O)c3ccc(O)cc3O)c(O)c1C2=O (stereo partly drawn) | -46%
Cc1cc(C(=O)O)ccc1O | -58%
CN(C)CCN(Cc1ccc(Cl)cc1)c1ccccn1 | -7%
CC/C=C\CCO | 3%
NC(N)=Nc1nc(CSCC/C(N)=N/S(N)(=O)=O)cs1 | 3%
NCCCS(=O)(=O)O | -1%

Set 4
Organism: Sarcocystis neurona
Read-out: parasite activity
Concentration: 10 µM
Time: 96 h
SMILES | activity class
CN1CCN2c3ncccc3Cc3ccccc3C2C1 (stereo not drawn) | inactive
CNCC[C@@H](Oc1ccccc1C)c1ccccc1 | inactive
Cc1cn([C@H]2C[C@H](N=[N+]=[N-])[C@@H](CO)O2)c(=O)[nH]c1=O | inactive
CCOC(=O)c1ncn2c1CN(C)C(=O)c1cc(F)ccc1-2 | inactive
COc1ccc(/C=C/C(=O)Nc2ccccc2C(=O)O)cc1OC | inactive
COc1ccc(Cl)cc1C(=O)NCCc1ccc(S(=O)(=O)NC(=O)NC2CCCCC2)cc1 | inactive
O=c1c(-c2ccccc2)c1-c1ccccc1 | active
CCCN(CCC)S(=O)(=O)c1ccc(C(=O)O)cc1 | inactive
CC(C)OC(=O)CCC/C=C\C[C@@H]1[C@@H](CC[C@@H](O)CCc2ccccc2)[C@H](O)C[C@@H]1O | inactive
CC#C[C@]1(O)CC[C@H]2[C@@H]3CCC4=CC(=O)CCC4=C3[C@@H](c3ccc(N(C)C)cc3)C[C@@]21C | inactive
C#C[C@]1(O)CC[C@H]2[C@@H]3CCC4=Cc5oncc5C[C@]4(C)[C@H]3CC[C@@]21C | inactive
Cc1occc(=O)c1O | inactive
OCc1cccnc1 | inactive
CC[C@H](C)C(=O)O[C@H]1CCC=C2C=C[C@H](C)[C@H](CC[C@@H]3C[C@@H](O)CC(=O)O3)[C@H]21 | inactive
Cc1cn([C@H]2C=C[C@@H](CO)O2)c(=O)[nH]c1=O | inactive
CC[C@H](C)C(=O)O[C@H]1C[C@@H](C)C=C2C=C[C@H](C)[C@H](CC[C@@H]3C[C@@H](O)CC(=O)O3)[C@H]21 | inactive
O=C(CCCN1CCC(O)(c2ccc(Cl)cc2)CC1)c1ccc(F)cc1 | inactive

Repeated from above (set 1):
Structure (SMILES) | remaining activity [%]
Cc1nc(N(C)C(=O)Cc2ccc(-c3ccccn3)cc2)sc1S(N)(=O)=O | 100
CCOc1nc2cccc(C(=O)O)c2n1Cc1ccc(-c2ccccc2-c2noc(=O)[nH]2)cc1 | 73.6
CC1=C(/C=C/C(C)=C/C=C/C(C)=C/C=C/C=C(C)/C=C/C=C(C)/C=C/C2=C(C)C(=O)[C@@H](O)CC2(C)C)C(C)(C)C[C@H](O)C1=O | 86.9
CNCc1ccc(-c2[nH]c3cc(F)cc4c3c2CCNC4=O)cc1 | 77.3
Nc1nc(=O)n([C@@H]2CS[C@H](CO)O2)cc1F | 99.9
Nc1ccccc1NC(=O)c1ccc(CNC(=O)OCc2cccnc2)cc1 | 92.4
COc1ccc([C@H]2CNC(=O)C2)cc1OC1CCCC1 | 100
CN(C)CCn1nnnc1SCC1=C(C(=O)O)N2C(=O)[C@@H](NC(=O)Cc3csc(N)n3)[C@H]2SC1 | 98.7
NS(O)(O)Cc1noc2ccccc12 | 101
